Experimental data gathered from unrelated publications.
Each numbered part is a random draw from the data of one study; scales do not carry over between parts.

Series 1
Target: Histone acetyltransferase KAT6A, winged helix 2, GST fusion (KAT6A, Homo sapiens, UniProt Q92794, residues 85-181)
Technique: protein binding microarray
Form: double-stranded DNA, one strand shown
Medium: in vitro
Concentration: not given
Notes: 8-mer, flanks averaged, mean of 2 arrays, mostly near background
Baseline: not given
Reading: higher = stronger binding
Residues (chain): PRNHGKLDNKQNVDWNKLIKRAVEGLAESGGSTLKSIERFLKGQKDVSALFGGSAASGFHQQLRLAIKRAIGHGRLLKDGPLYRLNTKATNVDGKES
`ACGTGCAG` has an E-score of -0.111.
`GCAAAACA` gave an E-score of -0.14.
For `ACTGTGCT`, the E-score was 0.0329.
For `ATCTGGGG`, the E-score was -0.133.
With `ACATGGTC` the E-score was -0.0797.
For `ATACAGGC`, the E-score was -0.151.
For `CTGTCGGC`, the E-score was 0.136.
The E-score of `TACTTCCA` is reported as -0.0358.
With `AACGAGGT` the E-score was 0.018.
`GTGCAATA` gave an E-score of -0.168.
`CGACGTCA` gave an E-score of 0.103.
With `CCGCTAAG` the E-score was 0.0832.
The E-score of `AGGGCCGC` is reported as 0.0941.
With `GCCTCGGA` the E-score was 0.0298.
`CCACAAGC` gave an E-score of 0.124.
With `TAGCATAA` the E-score was -0.109.
`AATAGATT` has an E-score of 0.0645.
`AATCGTTA` gave an E-score of -0.0602.
`GGTTATAA` gave an E-score of -0.121.
With `CCGCTTGA` the E-score was 0.169.
`GAATTCCC` gave an E-score of 0.0442.
The E-score of `GTATACGA` is reported as 0.00267.
With `GTGAGCGA` the E-score was 0.125.
`CGCTTCCC` has an E-score of 0.0189.
`AATAAGGA` gave an E-score of -0.197.

Series 2
Target: RING finger protein unkempt homolog, zinc fingers 1-6, GST-SBP tag (UNK, Homo sapiens, UniProt Q9C0B0, residues 30-357)
Chain of UniProt Q9C0B0 (30-357, looked up): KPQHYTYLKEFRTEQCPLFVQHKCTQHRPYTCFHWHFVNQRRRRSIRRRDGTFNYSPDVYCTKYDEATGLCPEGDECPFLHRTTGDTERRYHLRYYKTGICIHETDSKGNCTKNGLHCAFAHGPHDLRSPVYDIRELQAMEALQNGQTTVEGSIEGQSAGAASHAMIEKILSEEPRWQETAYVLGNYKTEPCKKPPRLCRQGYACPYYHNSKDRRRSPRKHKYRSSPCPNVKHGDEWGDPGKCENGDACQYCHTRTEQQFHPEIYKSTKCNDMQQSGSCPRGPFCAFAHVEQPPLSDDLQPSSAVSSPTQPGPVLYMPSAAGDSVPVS
Technique: RNA Bind-n-Seq
Form: RNA
Medium: in vitro
Concentration: not given
Notes: RNA with constant flanks, ends assumed
Baseline: input RNA pool
Reading: higher = stronger binding
All sequences stand within: GGGAGUUCUACAGUCCGACGAUC … CAACAGAGGAUUGAGCAUCA
For `ACUUUAAGUUGUUGGAAUUCCUUUAAGAAGAGUAUAAAUUAUUUUUUUUAUUUAAAAGGACCGUUGAUUCCUGGGGUACUUUGUUUUGAAAUUAGAAGUUGUUAAGGACACUUUUGUUGU`, the bound/input enrichment was 4.82 ratio.
The bound/input enrichment of `UGACAAAAUGUGAUGAGAGCUUCUUGAACCGGUAAACUAGUACAGGUCUGAGAAAGACAUAUCCGAAGAAUCAUUAUACUUCCUUGAAUUAUAUUUAUUUUCAUGUUUCUCUAAUGCAAA` is reported as 0.656 ratio.
`UGGAAAGAUGAAUUCAAGGCACACUCAAGGGUGAAGUGUCCAAACUCAGGGUGCUGGCCCGAGUUCCCCAGCAUCUAUGGGCUCAAGUACCACUAUCAGCGGUGCCAAGGGGUAAGGGGC` gave a bound/input enrichment of 0.182 ratio.
`GGCAUGAAGGAUGACCGUCGGGACAGAUACUCUGCGGGCAAAAGGGGUGGAUUUAAUACCUUCCGAGACAGGGAAAAUUAUGACAGAGGUUACUCUAGCCUGCUUAAAAGAGAUUUUGGG` gave a bound/input enrichment of 0.465 ratio.
`AAUUCAUCCCUCGUGCACAUCCUGUUGUGUUUAAGUCACCAGAUAUUUUGUUCCCAUCAGUUCCGCCCAGAGAUAGACAGUAGAAUGCAAAUACCUCCCUCCCCUAAACUGACUGGACGG` has a bound/input enrichment of 1.07 ratio.
With `UAGAUACCCCAGCGAGUUCUGACUCUGAACUAUAACUUUUUUUUUUUUUAAUGCAAAGACACCCGUCUGAUAAUAUAUACUGUAUUCCCGGAGACAUUUGUGUUACUUACCCUUGGGGGC` the bound/input enrichment was 2.71 ratio.
For `GAAGCUCAGCACUUAACAACUGACACCCCAAAAGACGUAGAAAAGGUUUACAAAAUAAUCCCGUUUACGAAGAAAUCUUGUGCUAGAAUACUUUUUAAAGUAUUUUUGAAUACCAUUAAA`, the bound/input enrichment was 0.251 ratio.
The bound/input enrichment of `AUGGAAAAGGAUUCUCUGCCUCGCUUUGUGCGCUCUGAGUUUUAUCAGGAGUUAAUCAAGCCGUAAUUUAGCCAGGCUAUGAAAUCAUCCUGUGAGUUAUUUCCUCCAUAAUAACCCUGC` is reported as 0.272 ratio.
With `CAUUUCACAACUAGAUUGUAUAAGGAUAUUAGCUGUGAUGAGACUCACUGCAUUAUUUUUUUCCGUGAAUUUUAUGAAAUCCCCGUUCCAUUCAACAGGCACAUGUUUAAAAGAGCUUUG` the bound/input enrichment was 0.336 ratio.
`UCAUGUAGUUCGUUUUUAAUUUCAAGCAAAUCUUAUUGUACUUGAAUGUGCCCUGUUUUGUCCGCACACCUAGACUUGCUGUAACUGUACUCAUGUCCCAGUAUGUACCUUCUUUCUAUG` gave a bound/input enrichment of 1.53 ratio.
`GAUCCAAUGUUGCUGCAGUUUUUCAAGUCUCAAGGUUAUAGGGAUGGCCCAGGUAAUCCUCUCCGACAUAAUUAUGAAGGUACUUUAAGAGAUCUUCUACAGUUCUUCAAGCCUAGACAA` gave a bound/input enrichment of 0.44 ratio.

Series 3
Target: Interferon regulatory factor 7, full length, phosphomimetic (IRF7, Homo sapiens, UniProt Q92985, residues 1-503, S471D/S472D/S475D/S476D/S477D/S483D/S484D/S487D)
Technique: protein-binding microarray
Form: double-stranded DNA, one strand shown
Medium: in vitro
Concentration: 2200 nM top
Notes: 60-bp whole probe
Added: salmon DNA 0.4 mg/ml
Baseline: random background probes
Reading: higher = stronger binding
All sequences stand within: GCCTAGCAC … GTCTTGATTCGCTTGACGCTGCTG
Construct (chain): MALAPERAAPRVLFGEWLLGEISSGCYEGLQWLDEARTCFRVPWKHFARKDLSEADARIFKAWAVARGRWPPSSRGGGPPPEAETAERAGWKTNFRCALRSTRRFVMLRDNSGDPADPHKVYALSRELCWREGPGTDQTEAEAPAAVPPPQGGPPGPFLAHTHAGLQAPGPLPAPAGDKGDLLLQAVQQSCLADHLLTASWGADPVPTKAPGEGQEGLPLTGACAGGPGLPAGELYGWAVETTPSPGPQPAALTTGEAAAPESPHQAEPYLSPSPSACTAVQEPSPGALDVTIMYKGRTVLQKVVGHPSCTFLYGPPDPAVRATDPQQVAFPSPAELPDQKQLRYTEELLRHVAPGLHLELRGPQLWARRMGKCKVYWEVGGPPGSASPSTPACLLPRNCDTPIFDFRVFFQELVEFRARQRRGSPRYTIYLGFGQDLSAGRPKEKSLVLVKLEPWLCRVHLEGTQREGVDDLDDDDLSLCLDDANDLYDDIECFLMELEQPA
`TTAGGTTTCGGTATGGGTTAGTGCTAG` — result for “fitted relative affinity”: 7.36 z-score.
`CACGGTCTCGGTATCGGGACGTGCTAG` — result for “fitted relative affinity”: 0.171 z-score.
`GACGGTAACGGTTTCGGGACGTGCTAG` — result for “fitted relative affinity”: 2.28 z-score.
Under “fitted relative affinity”, `TTAGAACTGAGCTTCGATTAGTGCTAG` is recorded as -0.514 z-score.
For `TGAGGTCTCCTTATCCTTTAGTGCTAG`, “fitted relative affinity” read 0.689 z-score.
For `GACGGTATCGGTTTGGGGACGTGCTAG`, “fitted relative affinity” read 1.94 z-score.
Under “fitted relative affinity”, `TTAGATATAAGTCTCGATTAGTGCTAG` is recorded as -0.226 z-score.
For `GACGGACTGGATCTCGGGACGTGCTAG`, “fitted relative affinity” read -0.512 z-score.
For `TCATCTTTACTTCACTCACTGTGCTAG`, “fitted relative affinity” read 1.7 z-score.
Under “fitted relative affinity”, `TTAGGTATCGACACTCGGTTAGTGCTA` is recorded as 0.502 z-score.
`TCAGTTTCCTTCCTCTTACTGTGCTAG` — result for “fitted relative affinity”: 5.09 z-score.
`TTAGGCATCCTACTGCTTTAGTGCTAG` — result for “fitted relative affinity”: 0.108 z-score.
Under “fitted relative affinity”, `GAAGGTATCGGTCTCGGGACGTGCTAG` is recorded as 0.307 z-score.
`GACGGACTGCTTTCCCTGACGTGCTAG` — result for “fitted relative affinity”: 0.764 z-score.
For `GACGGTATCGGGTATTGGGACGTGCTA`, “fitted relative affinity” read -0.328 z-score.
`TTAGGACTGGCCTTTCGGTTAGTGCTA`: “fitted relative affinity” 1.46 z-score.
`GTCGATATCGGGTATCGAGACGTGCTA`: “fitted relative affinity” 0.467 z-score.
For `CCCAATTCTCTTTTCACTTTGTGCTAG`, “fitted relative affinity” read 3.4 z-score.
`AGGCCCTTTGCTTTCCTGATGTGCTAG`: “fitted relative affinity” 1.34 z-score.
`CACGGACTGGGTATCGGGACGTGCTAG`: “fitted relative affinity” -0.745 z-score.
For `GACGGTATCGACAATCGGGACGTGCTA`, “fitted relative affinity” read 0.0261 z-score.
`GACGGTTTCGGGTATCCGGACGTGCTA` — result for “fitted relative affinity”: 6.29 z-score.
`TCAATATTATATCTGTGACTGTGCTAG` — result for “fitted relative affinity”: 0.623 z-score.
For `TTAGGTATCGGATATCGGTTAGTGCTA`, “fitted relative affinity” read 0.274 z-score.
`ATAGGACTGGGGTTTCGGTTAGTGCTA`: “fitted relative affinity” 2.88 z-score.

Series 4
Target: Ras GTPase-activating protein-binding protein 1, C-terminal RGG region (G3BP1, Homo sapiens, UniProt Q13283)
Chain of UniProt Q13283 (whole entry, looked up): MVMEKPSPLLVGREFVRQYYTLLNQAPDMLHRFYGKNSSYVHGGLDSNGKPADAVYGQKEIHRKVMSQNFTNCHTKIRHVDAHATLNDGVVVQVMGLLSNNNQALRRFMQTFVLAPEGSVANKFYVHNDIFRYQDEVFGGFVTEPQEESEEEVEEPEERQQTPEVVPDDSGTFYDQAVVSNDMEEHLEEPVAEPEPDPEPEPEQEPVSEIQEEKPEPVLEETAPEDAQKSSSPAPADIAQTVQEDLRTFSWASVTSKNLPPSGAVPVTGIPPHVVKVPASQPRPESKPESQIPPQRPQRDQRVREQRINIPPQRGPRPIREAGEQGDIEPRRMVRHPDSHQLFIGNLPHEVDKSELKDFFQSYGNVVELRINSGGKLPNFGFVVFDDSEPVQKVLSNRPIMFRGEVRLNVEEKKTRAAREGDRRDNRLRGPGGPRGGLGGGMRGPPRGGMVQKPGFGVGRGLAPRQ
Technique: RNA Bind-n-Seq
Form: RNA
Medium: in vitro
Concentration: 1 µM
Notes: whole 134-nt RNA, ends assumed
Added: 150 mM KCl
Baseline: input library
Reading: higher = stronger binding
All sequences stand within: GGGAGUUCUACAGUCCGACGAUC … UGGAAUUCUCGGGUGUCAAGG
The log2 enrichment of `GCAGGAAGUAAAAACAAAUGGAAAUGCUUCGGAUAGUGGCAGGGGGGGGGGUUGCUAAGGAAAGGGUGGGAUGGGAGUGGGUAAAGAGUU` is reported as 0.889.
`CUCAAGUCCUGUGCUACACAUCGUAUGUACCGAAUCGGAAAGGUUUGGUUUGGAAAGUAUUAUGUUACGCCGUUCGGAUCUGCACUUCCA` has a log2 enrichment of -1.38.
For `GCAGGAAGUAAAAACAAAGGGAAAUGCUUCGGAUAGUGGCAGGGGUGGGGGUUGCUAAGGAAAGGGUGGGAUGGGAGUGGGUAAAGAGUU`, the log2 enrichment was 2.12.
`UGCAGCUCUCCGGCUGGGAUCCUGGUUGACGCCAUGUCCCAGAAGCACCUUCAGAUCAACCAGACAUUUGAGGAGCUGCGACUGGUCACG` has a log2 enrichment of -1.65.
`CACAGACAACACGCACCCACACAGACACAGAGGGAAGGGGUUGGGAUGGGGACAAGGUGCACAGCAGGGCGGGGUAGGACCCCAGCCCCU` gave a log2 enrichment of 1.13.
The log2 enrichment of `GCAGGAAGUAAAAACAAAUGGAAAUGCUUCGCAUAGUGGCAGGGGUGGGGGUUGCUAAGGAAAGGGUGGGAUGGGAGUGGGUAAAGAGUU` is reported as 1.97.
For `AAGUCCUGUGCUACACAUCGUAUGUACCGAAUCGGGUGGGAAAAAGGGAAAAAGGGAAAGUAUUAUGUUACGCCGUUCGGAUCUGCACUU`, the log2 enrichment was 0.673.
For `GUCCUGUGCUACACAUCGUAUGUACCGAAUCGGAAAAAAGGGAAAAAAGGAAAAAAGGAAAGUAUUAUGUUACGCCGUUCGGAUCUGCAC`, the log2 enrichment was -1.4.
The log2 enrichment of `CAAGUCCUGUGCUACACAUCGUAUGUACCGAAUCGGGUUUGGGGUUUGGUUUGGGGAAAGUAUUAUGUUACGCCGUUCGGAUCUGCACUU` is reported as -0.343.
`AUUAAUUUGUACACAGACAGGGAAACUGGCAAGCUGAAGGGAGAGGCAACGGUCUCUUUUGAUGACCCACCUUCAGCUAAAGCAGCUAUU` gave a log2 enrichment of -1.44.
`UGGCCCUGGUGGCAUGCGGGGAGGAAGAGGUGGCCUCAUGGAUCGUGGUGGUCCCGGUGGAAUGUUCAGAGGGGGCCGUGGUGGAGACAG` gave a log2 enrichment of 3.9.
For `CAAGUCCUGUGCUACACAUCGUAUGUACCGAAUCGGUUUGGAAAAAAAGGUUUGGAAAGUAUUAUGUUACGCCGUUCGGAUCUGCACUUC`, the log2 enrichment was -2.2.
For `GCAGGAAGUAGAAACAAAUGGAAAUGCUUCGGAUAGUGGCAGGGGUGGGGGUUGCUAAGGAAAGGGUGGGAUGGGAGUGGGUAAAGAGUU`, the log2 enrichment was 1.7.
With `CUGUGCUACACAUCGUAUGUACCGAAUCGGGGUUUUUUUGGGUUUUUUUGGUUUUUUUGGGAAAGUAUUAUGUUACGCCGUUCGGAUCUG` the log2 enrichment was -1.45.

Some of these lines once more (series 1):
For `ACTGTGCT`, the E-score was 0.0329.
With `TAGCATAA` the E-score was -0.109.
With `CCGCTTGA` the E-score was 0.169.
`CGCTTCCC` has an E-score of 0.0189.
For `ATACAGGC`, the E-score was -0.151.
For `CTGTCGGC`, the E-score was 0.136.
`GGTTATAA` gave an E-score of -0.121.
`GCAAAACA` gave an E-score of -0.14.
`AATAGATT` has an E-score of 0.0645.
`CGACGTCA` gave an E-score of 0.103.
`GTGCAATA` gave an E-score of -0.168.
